Assay results from different studies.
Each line is one published result; not all experiments were run side by side. Several values in a cell are separate wells, animals, samples, runs or records.
Organism: Escherichia coli

Compound	assay	system	conditions	scale	MIC
C#CCON=C1C(C)C(c2ccc(C)cc2)OC(c2ccc(C)cc2)C1C (centres unmarked)	microbial growth, broth dilution	MTCC443	24 h		12.5 µg/mL
CC1(C)OC2OC(C(CCO)NCCCNC(CCO)C3OC4OC(C)(C)OC4C3OCc3ccccc3)C(OCc3ccccc3)C2O1 (centres unmarked)	microbial growth, broth dilution		20 h		54 µg/mL
Cc1cc(N)c2cc(NC(=O)c3ccc4c(-c5cccc(O)c5)cccc4c3)ccc2n1		ΔtolC efflux-deficient			> 200 µM
CC[C@H](C)[C@H](NC(=O)[C@H](CCCNC(=N)N)NC(=O)[C@@H](N)CCCNC(=N)N)C(=O)N[C@@H](CCCNC(=N)N)C(=O)N1CCC[C@H]1C(=O)N[C@@H](CCCNC(=N)N)C(=O)N1CCC[C@H]1C(=O)N1CCC[C@H]1C(=O)N[C@@H](CCCNC(=N)N)C(=O)N[C@@H](CC(C)C)C(=O)N1CCC[C@H]1C(=O)N[C@@H](CCCNC(=N)N)C(=O)N1CCC[C@H]1C(=O)N[C@@H](CCCNC(=N)N)C(=O)N1CCC[C@H]1C(=O)N[C@@H](CCCNC(=N)N)C(=O)N1CCC[C@H]1C(=O)N[C@@H](CC(C)C)C(=O)N1CCC[C@H]1C(=O)N[C@@H](Cc1ccccc1)C(=O)N1CCC[C@H]1C(=O)N[C@@H](CCCNC(=N)N)C(=O)N1CCC[C@H]1C(=O)NCC(=O)N1CCC[C@H]1C(=O)N[C@@H](CCCNC(=N)N)C(=O)N1CCC[C@H]1C(=O)N[C@H](C(=O)N1CCC[C@H]1C(=O)N[C@@H](CCCNC(=N)N)C(=O)N1CCC[C@H]1C(=O)N[C@@H](CC(C)C)C(=O)N1CCC[C@H]1C(=O)N[C@@H](Cc1ccccc1)C(=O)N1CCC[C@H]1C(=O)O)[C@@H](C)CC	broth microdilution	BW25113 wild type, Mueller-Hinton broth	overnight, 37 °C		2.8 µM
CC(C)C[C@H](NC(=O)[C@H](CC(C)C)NC(=O)[C@H](CCCCN)NC(=O)CNC(=O)[C@H](CC(C)C)NC(=O)[C@H](CC(C)C)NC(=O)[C@H](CO)NC(=O)[C@H](CC(C)C)NC(=O)[C@H](CC(C)C)NC(=O)[C@H](CO)NC(=O)[C@H](CC(C)C)NC(=O)[C@H](CC(C)C)NC(=O)CN)C(N)=O	broth microdilution	K12			> 120 µM
OB(O)c1cnn(-c2cccc(Cl)c2)c1	bacterial growth	CTX-M-14 ESBL clinical isolate	cefotaxime alone		32 µg/mL
CCCCCCCCCCCCCC(=O)N[C@@H](Cc1c[nH]c2ccccc12)C(=O)N[C@@H](CCCCN)C(=O)N[C@@H](CCCCN)C(=O)N[C@@H](CCCCN)C(=O)N[C@@H](CCCCN)C(N)=O	broth microdilution	K12, water pH 7	18 h, 37 °C		16 µg/mL
COc1cc2c(=O)c(C(=O)NCCNCCO)cn(Cc3ccccc3)c2cc1OCc1cccc(Cl)c1		ATCC 25922		≥80% growth inhibition	< 0.25 µg/mL
N=C(N)NCCC[C@H](NC(=O)[C@H](Cc1c[nH]c2ccccc12)NC(=O)[C@H](CCC(N)=O)NC(=O)[C@H](Cc1c[nH]c2ccccc12)NC(=O)[C@H](CCCNC(=N)N)NC(=O)[C@H](CCCNC(=N)N)NC(=O)CCCCCNC(=O)/C=C/c1ccc(O)c(O)c1)C(N)=O	broth microdilution	ATCC 25922	24 h, 37 °C		76 µM and 79 µM
CCCCCCCCCCCCCC(=O)N[C@@H](Cc1ccccc1)C(=O)N[C@@H](CCCCN)C(=O)N[C@@H](CCCCN)C(=O)N[C@@H](CCCCN)C(=O)N[C@@H](CCCCN)C(N)=O	broth microdilution	K12, water pH 7	18 h, 37 °C		16 µg/mL
CCCO[C@H]1[C@H](O)[C@@H](N)[C@@H](O[C@H]2[C@H](O[C@@H]3O[C@H](CO)[C@@H](O[C@H]4O[C@@H](CN)[C@@H](O)[C@H](O)[C@H]4N)[C@H]3O)[C@@H](O)[C@H](N)C[C@@H]2N)O[C@@H]1CO	broth microdilution	clinical isolate AG 055			32 µg/mL
COc1ccc(-c2cc(C(F)(F)F)n3nc(N)nc3n2)cc1OC	microbial growth, broth dilution	DC2	20 h		> 128 µg/mL
CC(C)[C@H](NC(=O)[C@H]1NC(=O)[C@H](CO)NC(=O)[C@H](CC(N)=O)NC(=O)[C@@H](N)Cc2c[nH]c3cc(ccc23)C1C(N)=O)C(=O)N[C@H]1Cc2cn(cn2)C(c2ccc(O)cc2)[C@@H](C(=O)N[C@@H](CCCNC(=N)N)C(=O)N[C@@H](Cc2ccccc2)C(=O)O)NC(=O)[C@H](CO)NC1=O (some centres unmarked)		K-12 MG1655			16 µg/mL
CC[C@H](C)[C@H](NC(=O)[C@@H]1CCCN1C(=O)[C@H](CCCNC(=N)N)NC(=O)[C@@H]1CCCN1C(=O)[C@H](Cc1c[nH]cn1)NC(=O)[C@H](CO)NC(=O)[C@@H](NC(=O)[C@@H]1CCCN1C(=O)[C@H](CCCNC(=N)N)NC(=O)[C@@H]1CCCN1C(=O)[C@H](CO)NC(=O)[C@H](Cc1ccc(O)cc1)NC(=O)[C@@H]1CCCN1C(=O)[C@H](CCCNC(=N)N)NC(=O)[C@@H]1CCCN1C(=O)[C@H](CCCCN)NC(=O)CN)[C@@H](C)O)C(=O)N[C@@H](CCCNC(=N)N)C(=O)N[C@H](C(=O)O)C(C)C		BL21(DE3) untransformed, cation-adjusted Mueller-Hinton broth	37 °C, 25% broth		2 µg/mL
C=CCOC(=O)c1ccc(NC(=O)c2ccc(NC(=O)c3ccc(NC(=O)C(CC(N)=O)NC(=O)c4ccc(NC(=O)c5ccc([N+](=O)[O-])cc5)cc4)cc3)c(OC(C)C)c2OCC=C)cc1 (centres unmarked)		K12 ΔtolC			> 64 µg/mL
CC[C@H](C)[C@H](NC(=O)[C@H](NC(=O)[C@@H](CCC(N)=O)NC(=O)[C@@H](N)COC(=O)[C@@H](NC(=O)[C@@H](Cc1ccccc1)NC)[C@@H](C)CC)[C@@H](C)CC)C(=O)N[C@@H](CO)C(=O)N[C@H]1C(=O)N[C@@H](C)C(=O)N[C@@H](C2CCCCC2)C(=O)N[C@@H]([C@@H](C)CC)C(=O)O[C@H]1C	broth microdilution	ATCC 10798, Mueller-Hinton broth	16 h, 37 °C		> 8 µg/mL
CC[C@H](C)[C@H](N)C1=N[C@H](C(=O)N[C@@H](CC(C)C)C(=O)N[C@H](CCC(=O)O)C(=O)N[C@@H](Cc2ccccc2)C(=O)N[C@H]2CCCCNC(=O)[C@H](CC(N)=O)NC(=O)[C@@H](CC(=O)O)NC(=O)[C@H](Cc3c[nH]cn3)NC(=O)[C@@H](Cc3ccccc3)NC(=O)[C@H]([C@@H](C)CC)NC(=O)[C@@H](CCCN)NC2=O)CS1	broth microdilution	ATCC 25922, LB medium	18 h, 37 °C, with: ZnSO4 0.3 mM		> 64 µg/mL
CCCCCCCCCCCCCCCC(=O)N[C@@H](CCCCN)C(=O)N[C@@H](CCCCN)C(=O)N[C@@H](CCCCN)C(=O)N[C@@H](CCCCN)C(=O)N[C@@H](CCCCN)C(N)=O	broth microdilution	K12	16-24 h, 37 °C, prepared at pH 7		8 µg/mL
COc1ccc2nc(C)cc(OCC(=O)Nc3cc(C)cc(C)c3)c2c1	broth microdilution	3			> 64 µM
CC[C@H](C)[C@@H]1NC(=O)[C@@H](NC(=O)[C@H](CCCCN)NC(=O)[C@H](CC(C)C)NC(=O)[C@H](CC(C)C)NC(=O)CNC(C)=O)CN(C)C(=O)c2ccc(=O)n(c2)CC[C@@H](C(=O)N[C@@H](CC(C)C)C(N)=O)NC(=O)[C@H]([C@@H](C)O)NC(=O)[C@H](CCCCN)NC1=O		ATCC 25922, Mueller-Hinton broth	20 h, 37 °C		31 µg/mL
Cc1ccc(SCC2OC(OC3C(N)CC(N)C(OC4OC(CN)C(O)CC4N)C3O)C(O)C(N)C2O)cc1 (centres unmarked)		BL21(DE3)			18.8 µg/mL
Cc1c2oc3c(C)ccc(C(=O)N[C@@H]4C(=O)N[C@H](C(C)C)C(=O)N5[C@H](C(=O)N(C)CC(=O)N(C)[C@@H](C(C)C)C(=O)O[C@@H]4C)[C@@H](O)C[C@@H]5C)c3nc-2c(C(=O)N[C@@H]2C(=O)N[C@H](C(C)C)C(=O)N3CC(=O)C[C@H]3C(=O)N(C)CC(=O)N(C)[C@@H](C)C(=O)O[C@@H]2CCl)c(N)c1=O	broth microdilution	ATCC 12435	16 to 48 h		> 9.2 µg/mL
N=C(N)NCCC[C@H](NC(=O)[C@H](Cc1c[nH]c2ccccc12)NC(=O)[C@H](CCC(N)=O)NC(=O)[C@H](Cc1c[nH]c2ccccc12)NC(=O)[C@H](CCCNC(=N)N)NC(=O)[C@H](Cc1c[nH]c2ccccc12)NC(=O)[C@H](CCC(N)=O)NC(=O)[C@H](Cc1c[nH]c2ccccc12)NC(=O)[C@@H](N)CCCNC(=N)N)C(=O)NCCCC[C@H](NC(=O)[C@H](CCCNC(=N)N)NC(=O)[C@H](Cc1c[nH]c2ccccc12)NC(=O)[C@H](CCC(N)=O)NC(=O)[C@H](Cc1c[nH]c2ccccc12)NC(=O)[C@H](CCCNC(=N)N)NC(=O)[C@H](Cc1c[nH]c2ccccc12)NC(=O)[C@H](CCC(N)=O)NC(=O)[C@H](Cc1c[nH]c2ccccc12)NC(=O)[C@@H](N)CCCNC(=N)N)C(=O)NCCCCCC(N)=O	broth microdilution	ATCC 25922	24 h, 37 °C		16 µM
CC[C@H](C)[C@H](NC(=O)[C@@H](NC(=O)[C@H](CCCCN)NC(=O)[C@H](CC(=O)O)NC(=O)[C@H](CCCCN)NC(=O)[C@H](Cc1ccccc1)NC(=O)[C@H](Cc1ccccc1)NC(=O)[C@H](CO)NC(=O)[C@H](CCCCN)NC(=O)[C@H](CCSC)NC(=O)[C@H](CCCCN)NC(=O)[C@H](CCCCN)NC(=O)[C@H](Cc1c[nH]c2ccccc12)NC(=O)[C@@H](N)Cc1ccccc1)C(C)C)C(=O)N1CCC[C@H]1C(=O)N[C@@H](CCCCN)C(=O)N[C@H](C(=O)N[C@@H](CCC(N)=O)C(=O)N[C@@H](CCC(N)=O)C(=O)N[C@@H](C)C(=O)N[C@@H](Cc1ccc(O)cc1)C(=O)N[C@@H](CO)C(=O)N[C@@H](CC(C)C)C(=O)N[C@@H](Cc1ccc(O)cc1)C(=O)N[C@@H](CC(N)=O)C(=O)N[C@@H](CCCCN)C(=O)N[C@@H](CC(C)C)C(=O)N[C@@H](CCC(N)=O)C(=O)N[C@@H](Cc1c[nH]cn1)C(=O)N[C@@H](CCCCN)C(=O)N[C@@H](CC(C)C)C(N)=O)C(C)C	broth microdilution	ATCC 35218			1.56 µM
CCCCCCCCCCCCCCCCCCSCC1OC(OC2C(N)CC(N)C(OC3OC(CN)C(O)CC3N)C2O)C(O)C(N)C1O (centres unmarked)		MC1061			> 150 µg/mL
CCC(CC)c1cc(C2CN3CCC2CC3CNC)nc(-c2ccncc2)n1 (centres unmarked)	microbial growth, broth dilution	ATCC25922			64 µg/mL
